# Measurements gathered from unrelated publications.
# Each line is one published result; not all experiments were run side by side. Values joined by “and” are separate records of one study, mostly repeats; a detail may differ.
# Target: Serine/threonine-protein kinase TAO3 (TAOK3, Homo sapiens, UniProt Q9H2K8)
Structure (SMILES),test,setting,scale,endpoint,result
COc1c(Cl)cccc1Nc1c(-c2ccncc2C#C[C@@]2(C)CCCN2C(=O)/C=C/CN(C)C)[nH]c2c1C(=O)NCC2,"binding, competition with immobilised ligand",3 µM,,remaining binding,27%
NC(=O)C[C@H]1CCc2sc3ncnc(O[C@H]4CC[C@H](N5CCOCC5)CC4)c3c21,"enzyme activity, inhibitor",10 µM,,inhibition,3%
C=CC(=O)N1CCCC(n2c(=O)c3ncccc3n(Cc3ccc(Oc4ccccc4)cc3)c2=O)C1 (stereo not drawn),"cell-free assay, competition with immobilised ligand",1 µM,,remaining binding,92%
Nc1ncc2c(n1)-c1c([nH]c3ccc(C4=CCOCC4)cc13)CCC2,"binding, competition with immobilised ligand",1 µM,,remaining binding,100%
COc1cc(Nc2nc(C)cc(-c3cnn4nc(OC)ccc34)n2)cc(C(F)(F)F)c1,"binding, competition with immobilised ligand",1 µM,,remaining binding,75%
C=CC(=O)Nc1cccc(-c2cnc3[nH]cc(C(=O)NC(C)(C)C)c3n2)c1,kinase activity,0.1 µM,,inhibition,21% and 22%
Cc1cccc(O[C@H]2CCC[C@@H](C(C)CNCc3ccncc3)C2)c1 (relative stereo),"enzyme activity, inhibitor",1 µM,,inhibition,-3%
COc1c(OCCCN2CCOCC2)ccc2c1N=C(NC(=O)c1cnc(N)nc1)N1CCN=C21,"kinase activity, inhibitor",1 µM,relative to: untreated control,remaining activity,98%
O=C(Cc1ccc(OCc2ccccc2)cc1)NC1(C(=O)O)CCN(C(=O)c2ccc(-c3cccc(Cl)c3)cc2)CC1,"enzyme activity, inhibitor",10 µM,,activity vs control,139%
Cc1cnc2nc1Nc1cccc(c1)COC/C=C/COCc1cc(ccc1OCCN1CCOCC1)N2,"binding, competition with immobilised ligand",0.1 µM,,remaining binding,100%
CNC1C[S+]2CC[S+]3CC[S+](C1)[Ru-4]321([N]=C=S)[n]2c3ccc(OC)cc3c3c4c(c5cc(F)c[n+]1c5c32)C(=O)NC4=O (stereo not drawn),KinomeScan,0.1 µM,relative to: untreated,remaining binding,88%
C=CC(=O)N1Cc2nc(-c3cc(-c4cc(Cl)cnc4Cl)c(F)cc3F)n(-c3ccncn3)c2C1,"cell-free assay, inhibitor",1 µM,,inhibition,-0.8%
CN1CC[C@@H](COc2cnc(C#N)cc2-c2ccn3nc(NC(=O)C4CC4)cc3c2)C1,"enzyme activity, inhibitor",1 µM,,inhibition,4%
COc1ccc(C(=O)/C=C/c2ccccc2-c2c[nH]c3ccc(C#N)cc23)c(O)c1,"enzyme activity, inhibitor",20 µM,,inhibition,-1%
Nc1ncc(-c2cc(-c3cnn(CC(F)(F)F)c3)ncc2F)nc1C(=O)NC1CNCC(F)C1 (stereo not drawn),enzyme activity,1 µM,relative to: DMSO control,remaining activity,81.2%

# Excerpt of the above:
Structure (SMILES),test,setting,scale,endpoint,result
C=CC(=O)N1Cc2nc(-c3cc(-c4cc(Cl)cnc4Cl)c(F)cc3F)n(-c3ccncn3)c2C1,"cell-free assay, inhibitor",1 µM,,inhibition,-0.8%
